Measured values pooled from the literature.
Every numbered part comes from another study and shows a few of its results, in no order. Positions count from the first letter of the parent shown.

Study 1
Target: RING finger protein unkempt homolog, zinc fingers 1-6, GST-SBP tag (UNK, Homo sapiens, UniProt Q9C0B0, residues 30-357)
Chain of UniProt Q9C0B0 (30-357, looked up): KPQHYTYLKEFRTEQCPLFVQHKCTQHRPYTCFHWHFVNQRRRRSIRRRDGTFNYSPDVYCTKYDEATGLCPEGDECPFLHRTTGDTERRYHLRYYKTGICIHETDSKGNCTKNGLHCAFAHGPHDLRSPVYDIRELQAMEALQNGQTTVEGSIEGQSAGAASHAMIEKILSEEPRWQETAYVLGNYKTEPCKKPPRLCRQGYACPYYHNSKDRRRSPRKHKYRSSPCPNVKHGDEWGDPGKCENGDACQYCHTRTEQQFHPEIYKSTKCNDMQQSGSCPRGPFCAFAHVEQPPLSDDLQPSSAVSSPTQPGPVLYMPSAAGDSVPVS
Technique: RNA Bind-n-Seq
Molecule type: RNA
Medium: in vitro
Tested at: not given
Notes: RNA with constant flanks, human and mouse sites, ends assumed
Baseline: input RNA pool
Reading: higher = stronger binding
All sequences stand within: GGGAGUUCUACAGUCCGACGAUC … CAACAGAGGAUUGAGCAUCA
Oligonucleotide	bound/input enrichment [ratio]
CCAUCCCUCAGUGACAGUAUGCCUUCUGUAGCAGAUUCUCACUCUAGUCAUUUUUCUGAAUUUAGUUGUUCUGACCUAGAAAGCAUGAAAACUUCUUGUAGUCAUGGUUCCAGUGAUUAU	16.7
GAAAAAUUUGAAAUGUUUUUGGUUCACUAGUACAAUGUUUGGUUUUAUUCCUAAAGUAAAUAGCUAUCUAAGAGAGGGCAUUUUCACUUUUUUUUUUUUAAAUUUUGAGACAGGCUCUCA	6.29
AACAACAUCAAGGAAGUACUUCUGUUUCCUGCCAUGAAACCCGAAGACAAGAAGGAGAAUGUAGCAACCACUGAUACACUGGAAAGCACAACAGUUGGCACUUCUGUCUAGAAAAUAAUA	0.758
CCAGCAGAGAAGAAAUCGGGAGCACAAGUUCACCCCGAAGGGGUUGAACUCAAAGUAAAGAAUUUGGAGGCAGUACAGACAGACUUCAGCAAUGAACCGCUGCAGAAAGUUGUGUGCUUC	0.196
CCAAAUGUUCAGAAGUUGAAAUGGAUUGUUUCUGGGCGUACUGCACGGCAAUUGAAGCAUAGCUACUACAGAAUAACUCACCUUCCAACAAUUCCUGAAAUGGUCCCUUAACUGGAUUAU	0.102
AUUCUGGCAGCUGUCCGGAAGGUCCUACAUAAGGACAAGUCACAAGAGAAUGCAGGCAUGUUCAAGAAUGGAGGCCUCCUUUUCCGAAUAGCCCUACUUACCAUUGGAGGCACCAGCAUG	0.345
UAAGAGUUUUGCUGUUAACUCCUUAAGAGGGCUUUAAAGCCUUUUAUAUUAAGUGCCAUACAACUUCAGAUGCCUUCUGAAUACUGAACACAAGUGUAAUAUUAUAGUUCAUUAAAUGUC	0.457
GAUGCUUUCUGAAGUUGUAUUCAUAAAAAUUAUCCCAUCUUACAGUUAAUCAGAAGAUGUUCUUACCUUUGGUUUGCCUGCCUCCUGAAACACAAACCUGCAGAUUGCCCCUAACUUCAG	0.512

Study 2
Target: Histone acetyltransferase KAT6A, winged helix 1, GST fusion (KAT6A, Homo sapiens, UniProt Q92794, residues 1-85)
Technique: protein binding microarray
Molecule type: double-stranded DNA, one strand shown
Medium: in vitro
Tested at: not given
Notes: 8-mer, flanks averaged, mean of 2 arrays, mostly near background
Baseline: not given
Reading: higher = stronger binding
Target sequence (chain): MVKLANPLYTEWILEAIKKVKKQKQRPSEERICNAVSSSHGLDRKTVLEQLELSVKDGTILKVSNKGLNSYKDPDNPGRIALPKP
Oligonucleotide	E-score
AGGCGCTG	0.299
CGGGTAGC	0.285
ATCCAATG	-0.178
ATAATAAC	0.0144
TCATTTAA	-0.111
CCCCCGGA	0.048
ACCTAAGC	-0.0625
ACCGGTTA	0.302
CGGTATGA	0.0575
ACTTGCAG	-0.249
ATTATATA	-0.115
AAGATTCG	-0.137
CATTTCTC	-0.0687

Study 3
Target: CCND1, cyclin fold, Cln2 fusion (human)
Technique: yeast growth competition, sequencing
Medium: yeast
Notes: strong parent motif
Baseline: not given
Reading: higher = stronger binding
Starting sequence: RBL2 docking peptide (human); STTRRRLFVENDS
Substitution	normalised enrichment score
V9K	0.529
L7S	0.783
T3A	2.69
N11C	1.06
D12L	-0.165
T3I	0.179
S1E	-0.0606
E10T	-0.32
S1H	1.01
D12Q	0.551
T2F	1.51
R6H	0.00367
D12Y	0.342
S1K	0.451

Other studies, line by line
Substance	target	assay	test system	conditions	scale	quantity	result
PhoQ, residues 284 288 289 292 302 303 SLKLQV	PhoP, residues 12 14 15 18 19 NMSSL (Escherichia coli, UniProt P23836)	Sort-seq, refers to: YFP reporter	E. coli	PhoQ-PhoP variant library, added: 10 µM Mg2+	baseline: high Mg2+ state, higher = stronger signaling	fold induction	9.49

Some of these lines once more (study 3):
Substitution	normalised enrichment score
D12Q	0.551
R6H	0.00367
